Measurements gathered from unrelated publications.
Protocols differ between the studies behind these lines.
Sequence of UniProt P07949 (whole entry, looked up): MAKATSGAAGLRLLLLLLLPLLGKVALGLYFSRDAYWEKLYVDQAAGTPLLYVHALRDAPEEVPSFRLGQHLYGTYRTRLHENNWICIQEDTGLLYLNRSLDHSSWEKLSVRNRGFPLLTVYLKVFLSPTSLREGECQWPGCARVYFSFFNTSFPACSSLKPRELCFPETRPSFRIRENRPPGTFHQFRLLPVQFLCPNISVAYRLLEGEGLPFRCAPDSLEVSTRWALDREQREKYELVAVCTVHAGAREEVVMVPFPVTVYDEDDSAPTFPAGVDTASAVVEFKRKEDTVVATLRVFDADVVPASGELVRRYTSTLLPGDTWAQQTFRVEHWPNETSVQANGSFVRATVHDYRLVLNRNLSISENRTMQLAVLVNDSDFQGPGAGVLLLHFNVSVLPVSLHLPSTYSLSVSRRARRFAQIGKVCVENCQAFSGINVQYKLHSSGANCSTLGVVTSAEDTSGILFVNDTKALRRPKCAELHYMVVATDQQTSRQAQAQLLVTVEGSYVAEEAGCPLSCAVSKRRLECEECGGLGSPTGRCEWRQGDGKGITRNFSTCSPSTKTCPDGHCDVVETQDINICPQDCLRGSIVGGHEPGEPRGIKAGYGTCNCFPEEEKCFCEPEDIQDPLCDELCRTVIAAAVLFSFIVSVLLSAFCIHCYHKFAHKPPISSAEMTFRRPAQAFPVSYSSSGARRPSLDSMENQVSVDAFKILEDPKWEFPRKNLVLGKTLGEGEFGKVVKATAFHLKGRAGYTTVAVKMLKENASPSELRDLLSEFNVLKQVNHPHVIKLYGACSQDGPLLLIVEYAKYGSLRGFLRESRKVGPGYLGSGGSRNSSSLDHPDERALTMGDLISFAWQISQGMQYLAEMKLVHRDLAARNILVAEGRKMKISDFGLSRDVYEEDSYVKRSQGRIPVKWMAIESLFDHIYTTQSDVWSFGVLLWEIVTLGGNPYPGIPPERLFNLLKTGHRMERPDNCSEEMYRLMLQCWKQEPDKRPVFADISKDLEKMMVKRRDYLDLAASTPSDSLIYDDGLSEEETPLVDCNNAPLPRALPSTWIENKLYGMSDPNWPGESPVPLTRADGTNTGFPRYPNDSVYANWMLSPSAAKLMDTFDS
Sequence of UniProt P48039 (whole entry, looked up): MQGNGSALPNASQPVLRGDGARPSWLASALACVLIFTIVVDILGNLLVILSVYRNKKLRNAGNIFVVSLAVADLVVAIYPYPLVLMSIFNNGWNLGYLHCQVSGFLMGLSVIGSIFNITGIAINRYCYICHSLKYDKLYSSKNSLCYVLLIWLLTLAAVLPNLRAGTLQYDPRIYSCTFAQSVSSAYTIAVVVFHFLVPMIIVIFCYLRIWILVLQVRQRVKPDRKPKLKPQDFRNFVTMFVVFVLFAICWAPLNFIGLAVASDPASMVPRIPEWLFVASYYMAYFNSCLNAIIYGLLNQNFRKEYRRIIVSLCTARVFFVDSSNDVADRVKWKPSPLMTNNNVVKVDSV
Sequence of UniProt Q02779 (whole entry, looked up): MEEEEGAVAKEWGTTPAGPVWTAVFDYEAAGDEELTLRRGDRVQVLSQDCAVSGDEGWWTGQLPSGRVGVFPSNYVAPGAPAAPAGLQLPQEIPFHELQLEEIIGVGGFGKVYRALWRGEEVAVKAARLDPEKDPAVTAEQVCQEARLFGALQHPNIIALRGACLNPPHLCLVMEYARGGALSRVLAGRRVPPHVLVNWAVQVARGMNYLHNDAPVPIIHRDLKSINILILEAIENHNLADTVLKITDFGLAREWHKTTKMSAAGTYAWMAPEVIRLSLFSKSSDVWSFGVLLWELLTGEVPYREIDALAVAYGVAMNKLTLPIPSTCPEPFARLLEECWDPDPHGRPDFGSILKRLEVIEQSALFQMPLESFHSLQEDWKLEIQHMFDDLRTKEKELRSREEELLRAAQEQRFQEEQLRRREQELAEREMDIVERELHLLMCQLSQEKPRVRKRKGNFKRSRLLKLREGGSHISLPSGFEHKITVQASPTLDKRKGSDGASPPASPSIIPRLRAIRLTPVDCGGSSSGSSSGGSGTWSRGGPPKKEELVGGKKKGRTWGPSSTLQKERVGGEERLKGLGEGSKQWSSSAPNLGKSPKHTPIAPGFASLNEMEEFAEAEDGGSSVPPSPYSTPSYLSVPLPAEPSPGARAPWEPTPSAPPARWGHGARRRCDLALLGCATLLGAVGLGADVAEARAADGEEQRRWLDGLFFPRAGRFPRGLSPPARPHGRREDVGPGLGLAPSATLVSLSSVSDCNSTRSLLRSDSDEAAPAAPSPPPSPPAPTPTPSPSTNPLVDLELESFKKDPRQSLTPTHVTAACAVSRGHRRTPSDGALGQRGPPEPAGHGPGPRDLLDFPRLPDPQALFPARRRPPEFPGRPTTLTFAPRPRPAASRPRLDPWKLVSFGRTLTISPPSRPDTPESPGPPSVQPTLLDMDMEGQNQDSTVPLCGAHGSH
Sequence of UniProt Q9UK32 (whole entry, looked up): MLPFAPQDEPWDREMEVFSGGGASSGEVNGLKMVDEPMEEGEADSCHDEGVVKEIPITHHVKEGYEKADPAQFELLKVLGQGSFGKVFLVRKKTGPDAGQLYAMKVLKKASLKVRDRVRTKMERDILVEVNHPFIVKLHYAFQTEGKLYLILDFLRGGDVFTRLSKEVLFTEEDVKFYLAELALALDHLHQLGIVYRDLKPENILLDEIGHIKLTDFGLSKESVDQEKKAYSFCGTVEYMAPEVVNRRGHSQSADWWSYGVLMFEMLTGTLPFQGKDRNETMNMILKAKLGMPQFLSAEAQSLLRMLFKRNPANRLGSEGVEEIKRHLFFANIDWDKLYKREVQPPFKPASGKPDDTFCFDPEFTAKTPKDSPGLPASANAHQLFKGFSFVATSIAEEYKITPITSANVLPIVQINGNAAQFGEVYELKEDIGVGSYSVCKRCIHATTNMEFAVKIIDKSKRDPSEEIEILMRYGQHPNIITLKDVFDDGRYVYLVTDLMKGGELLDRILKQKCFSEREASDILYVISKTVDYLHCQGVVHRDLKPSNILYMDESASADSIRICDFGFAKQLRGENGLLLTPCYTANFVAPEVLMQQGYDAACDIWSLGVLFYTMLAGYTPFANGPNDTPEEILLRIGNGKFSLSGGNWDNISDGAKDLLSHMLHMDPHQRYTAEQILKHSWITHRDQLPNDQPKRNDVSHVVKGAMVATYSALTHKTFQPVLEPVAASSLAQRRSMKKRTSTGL
Sequence of UniProt Q9BUB5 (whole entry, looked up): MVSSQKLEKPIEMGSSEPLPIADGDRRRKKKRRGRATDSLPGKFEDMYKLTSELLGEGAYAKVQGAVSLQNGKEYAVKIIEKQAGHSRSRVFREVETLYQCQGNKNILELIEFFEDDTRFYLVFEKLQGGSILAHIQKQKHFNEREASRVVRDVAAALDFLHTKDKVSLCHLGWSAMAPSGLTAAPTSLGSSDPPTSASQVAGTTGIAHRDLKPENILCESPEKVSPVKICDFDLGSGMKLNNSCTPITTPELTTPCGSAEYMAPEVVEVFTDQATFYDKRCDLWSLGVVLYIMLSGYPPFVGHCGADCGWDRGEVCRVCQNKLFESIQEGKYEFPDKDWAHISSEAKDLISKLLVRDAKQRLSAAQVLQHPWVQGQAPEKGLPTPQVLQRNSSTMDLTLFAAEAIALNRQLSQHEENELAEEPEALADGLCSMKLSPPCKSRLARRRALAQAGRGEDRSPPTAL
Sequence of UniProt Q9UQB9 (whole entry, looked up): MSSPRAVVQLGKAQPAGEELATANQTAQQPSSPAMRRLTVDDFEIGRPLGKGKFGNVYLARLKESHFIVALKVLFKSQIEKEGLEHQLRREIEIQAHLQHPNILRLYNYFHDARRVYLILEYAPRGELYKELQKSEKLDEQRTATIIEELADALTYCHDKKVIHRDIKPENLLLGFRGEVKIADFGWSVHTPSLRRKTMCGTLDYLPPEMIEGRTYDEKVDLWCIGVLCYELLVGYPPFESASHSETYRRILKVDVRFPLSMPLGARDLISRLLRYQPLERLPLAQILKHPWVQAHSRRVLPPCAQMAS
Sequence of UniProt P51812 (whole entry, looked up): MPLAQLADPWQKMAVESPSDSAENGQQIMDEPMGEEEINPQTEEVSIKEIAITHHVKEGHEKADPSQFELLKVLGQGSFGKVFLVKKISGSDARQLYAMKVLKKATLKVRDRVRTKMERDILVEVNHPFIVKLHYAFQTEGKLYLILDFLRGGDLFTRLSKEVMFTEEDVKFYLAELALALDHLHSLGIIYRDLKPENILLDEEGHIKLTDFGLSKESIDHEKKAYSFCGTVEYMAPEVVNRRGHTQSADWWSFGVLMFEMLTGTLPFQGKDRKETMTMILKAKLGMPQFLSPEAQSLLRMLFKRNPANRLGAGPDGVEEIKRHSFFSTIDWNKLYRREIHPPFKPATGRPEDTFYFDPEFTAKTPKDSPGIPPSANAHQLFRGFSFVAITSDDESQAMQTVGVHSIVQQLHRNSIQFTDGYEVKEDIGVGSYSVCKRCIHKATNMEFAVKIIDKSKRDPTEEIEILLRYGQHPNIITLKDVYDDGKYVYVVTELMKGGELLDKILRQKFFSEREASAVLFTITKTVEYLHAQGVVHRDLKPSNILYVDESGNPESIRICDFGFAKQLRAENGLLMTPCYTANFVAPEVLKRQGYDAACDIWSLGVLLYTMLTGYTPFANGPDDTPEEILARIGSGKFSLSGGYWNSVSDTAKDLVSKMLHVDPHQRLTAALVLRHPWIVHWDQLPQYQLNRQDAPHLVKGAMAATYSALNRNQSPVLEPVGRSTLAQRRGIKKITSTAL
Sequence of UniProt Q10QA5 (whole entry, unmodified, looked up): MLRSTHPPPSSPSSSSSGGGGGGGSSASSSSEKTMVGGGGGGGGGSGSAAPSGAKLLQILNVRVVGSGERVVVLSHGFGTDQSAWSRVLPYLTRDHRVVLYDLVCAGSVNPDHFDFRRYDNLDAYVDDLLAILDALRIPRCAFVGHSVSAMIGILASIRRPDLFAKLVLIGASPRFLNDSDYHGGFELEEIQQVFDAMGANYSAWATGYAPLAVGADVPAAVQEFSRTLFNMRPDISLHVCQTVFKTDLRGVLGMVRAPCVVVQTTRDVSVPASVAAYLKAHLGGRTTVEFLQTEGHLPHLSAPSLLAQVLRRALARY

| SMILES | target | test | conditions | measurement | result |
| --- | --- | --- | --- | --- | --- |
| N[C@@H](CC(=O)O)C(=O)O | SLC25A13 (Homo sapiens, UniProt Q9UJS0) | thermal stability, DSF | 100 µM | ΔTm | ~3 °C |
| CNc1ncc2c(/C=C/C(=O)N3CCC(OC)CC3)nn(Cc3cccc(C(F)(F)F)c3)c2n1 | MKNK1 (Homo sapiens, UniProt Q9BUB5) | enzyme activity, inhibitor, radiometric | 1 µM | remaining activity | 97% |
| C=CC(=O)N1CCC(COCC(=O)N2CCN(c3nc(-c4cnc(N)nc4C(F)F)nc(N4CCOC[C@@H]4C)n3)CC2)CC1 | MAP3K10 (Homo sapiens, UniProt Q02779) | binding, competition with immobilised ligand | 1 µM | remaining binding | 100% |
| CC(=O)/C=C/C=C(C)/C=C/C1=C(C)CC(O)CC1(C)C (stereo in doubt) | D14 (Oryza sativa, UniProt Q10QA5) | thermal stability, DSF | 100 µM | ΔTm | 6.86 °C |
| COc1ccccc1NC(=O)Nc1ccc2nc(NC(=O)c3ccccc3)sc2c1 | RET (Homo sapiens, UniProt P07949) | enzyme activity, inhibitor, radiometric | 10 µM | remaining activity | 83.7% |
| C1=C/COCc2cc(ccc2OCCN2CCCC2)Nc2nccc(n2)-c2cccc(c2)COC/1 | Ribosomal protein S6 kinase alpha-6, C-terminal kinase domain (RPS6KA6, Homo sapiens, UniProt Q9UK32) | cell-free assay | 0.1 µM | remaining signal | 98% |
| CCCCC(=O)Nc1ccc(-c2ccc3ncn(CCC)c(=O)c3c2)cn1 | CDK15 (Homo sapiens, UniProt Q96Q40) | binding, competition with immobilised ligand | 0.5 µM | remaining binding | 100% |
| COc1ccc2cccc(CCNC(C)=O)c2c1 | MTNR1A (Homo sapiens, UniProt P48039) | GTPγS binding, agonist, radiometric | cell membranes | Emax | 71% |
| COc1cc(-c2cncc3c2CN(C)Cc2cc(N4CCNCC4)ccc2-3)cc(OC)c1OC | Aurora kinase C (AURKC, Homo sapiens, UniProt Q9UQB9) | enzyme activity, inhibitor | 1 µM | remaining activity | 92% |
| CC[C@H](C)[C@H](NC(=O)[C@H](CCC(N)=O)NC(=O)[C@H](CC(C)C)NC(=O)[C@H](CCSC)NC(=O)[C@H](CCCCN)NC(=O)[C@H](CO)NC(=O)[C@H](CO)NC(=O)[C@H](CCSC)NC(=O)[C@H](CC(C)C)NC(=O)[C@H](CC(N)=O)NC(=O)[C@@H](NC(=O)[C@@H](NC(=O)[C@H](CO)NC(=O)[C@H](CC(C)C)NC(=O)[C@H](CS)NC(=O)[C@H](CCCNC(=N)N)NC(=O)[C@H](CC(=O)O)NC(=O)[C@H](Cc1c[nH]c2ccccc12)NC(=O)[C@H](Cc1ccccc1)NC(=O)[C@H](C)NC(=O)[C@H](CCC(=O)O)NC(=O)[C@@H](N)CCCCN)C(C)C)[C@@H](C)CC)C(=O)N[C@@H](CC(N)=O)C(=O)N[C@@H](C)C(=O)O | MAPK3 (Homo sapiens, UniProt P27361) | enzyme activity, inhibitor, radiometric | 1 µM, 20 min | remaining activity | 100% |
| Cc1cc([C@@H](C)Nc2ccccc2C(=O)O)c2nc(N3CCC(F)(F)CC3)c(C#N)c(=O)n2c1 | Ribosomal protein S6 kinase alpha-3, N-terminal kinase domain (RPS6KA3, Homo sapiens, UniProt P51812) | binding, competition with immobilised ligand | 1 µM | remaining binding | 96% |

Some of these lines once more:
| SMILES | target | test | conditions | measurement | result |
| --- | --- | --- | --- | --- | --- |
| CC(=O)/C=C/C=C(C)/C=C/C1=C(C)CC(O)CC1(C)C (stereo in doubt) | D14 (Oryza sativa, UniProt Q10QA5) | thermal stability, DSF | 100 µM | ΔTm | 6.86 °C |
